{"data": "Assay results pooled from the literature", "note": "Protocols differ between the studies behind these lines. Several values in a cell are separate wells, animals, samples, runs or records. ± marks the error that the study gave."}
{"Compound": "Cc1nn(-c2nc3c(F)cc(F)cc3s2)c(O)c1C(c1ccc(C(F)(F)F)cc1)c1c(C)nn(-c2nc3c(F)cc(F)cc3s2)c1O", "system": "ICR mouse, plasma", "conditions": "intravenous, 5 mg/kg", "Cmax": "9720 ng/mL and 21600 ng/mL and 12700 ng/mL"}
{"Compound": "O=C1CCC(N2Cc3cc(C(=O)O)c(F)cc3C2=O)C(=O)N1 (centres unmarked)", "system": "male CD-1 mouse, plasma", "conditions": "oral, 10 mg/kg of parent drug", "Cmax": "242 ± 119 ng/mL"}
{"Compound": "Cc1[nH]nc2c1N=C(c1ccccc1Cl)c1cnc(N3CCOCC3)cc1N2", "system": "nude mouse, HCC1806 xenograft, plasma", "conditions": "oral, 15 mg/kg once daily", "Cmax": "443 ng/mL"}
{"Compound": "CC(C)[C@@H](C)Nc1nc(-c2cccs2)nc(Cl)c1-c1c(F)cc(F)cc1F", "system": "mouse, plasma", "conditions": "intraperitoneal, 2.5 mg/kg, cassette dosing", "Cmax": "399 ng/mL"}
{"Compound": "Cc1ccc(=O)n(-c2ccc(O)cc2)c1", "system": "BALB/c mouse, plasma", "conditions": "oral, 1.0 mmol/kg", "Cmax": "23.4 ± 7.82 µM"}
{"Compound": "CN[C@H](CC(C)C)C(=O)N[C@H]1C(=O)N[C@@H](CC(N)=O)C(=O)N[C@H]2CN[C@H]3C(=O)N[C@H](C(=O)N[C@H](C(=O)NCCCNC(=N)N)c4cc(O)cc(O)c4-c4cc3ccc4O)[C@H](O)c3ccc(c(Cl)c3)Oc3cc2cc(c3O[C@@H]2O[C@H](CO)[C@@H](O)[C@H](O)[C@H]2O[C@H]2C[C@](C)(NCc3ccc(-c4ccc(Cl)cc4)cc3)[C@H](O)[C@H](C)O2)Oc2ccc(cc2Cl)[C@H]1O", "system": "mouse", "conditions": "intravenous, 50 mg/kg", "Cmax": "179000 ng/mL"}
{"Compound": "Fc1cccc(-n2cc(-c3ccccc3)nc2NCc2ccc(C(F)(F)F)c(Br)c2)c1", "system": "CD-1 mouse, male, intestine", "conditions": "intraperitoneal, 25 mg/kg", "Cmax": "167000 ng/g"}
{"Compound": "Cc1ncsc1-c1ccc(CNC(=O)[C@@H]2C[C@@H](O)CN2C(=O)[C@@H](NC(=O)COCC(C)(COCCOCCOCCNC(=O)C[C@@H]2N=C(c3ccc(Cl)cc3)c3c(sc(C)c3C)-n3c(C)nnc32)COCCOCCOCCNC(=O)C[C@@H]2N=C(c3ccc(Cl)cc3)c3c(sc(C)c3C)-n3c(C)nnc32)C(C)(C)C)cc1", "system": "C57BL/6 mouse, male, plasma", "conditions": "subcutaneous, 5 mg/kg", "Cmax": "3830 ng/mL"}
{"Compound": "O=c1c(-c2cnn(-c3ccc(Cl)cc3)c2)c(C(F)(F)F)oc2c(O)c(O)ccc12", "system": "mouse", "conditions": "intraperitoneal, 100 mg/kg, DMSO vehicle", "Cmax": "35.6 µM"}
{"Compound": "O=S(=O)(N[C@H]1CCC[C@@H](N2c3ccccc3CCc3ccccc32)[C@@H]1O)c1ccc(OC(F)(F)F)cc1", "system": "mouse, plasma", "conditions": "oral, 100 mg/kg, suspension", "Cmax": "1200 ng/mL"}
{"Compound": "C/C(N)=N/C(=N\\S(=O)(=O)c1ccc(C(F)(F)F)cc1)N1C[C@H](c2ccccc2)C(c2ccc(Cl)cc2)=N1", "system": "C57BL/6 mouse, male, plasma", "conditions": "oral, 10 mg/kg", "Cmax": "1300 ng/mL"}
{"Compound": "CN[C@H](CC(C)C)C(=O)N[C@H]1C(=O)N[C@@H](CC(N)=O)C(=O)N[C@H]2C(=N)N[C@H]3C(=O)N[C@H](C(=O)N[C@H](C(=O)NCCC[N+](C)(C)C)c4cc(O)cc(O)c4-c4cc3ccc4O)[C@H](O)c3ccc(c(Cl)c3)Oc3cc2cc(c3O[C@@H]2O[C@H](CO)[C@@H](O)[C@H](O)[C@H]2O[C@H]2C[C@](C)(NCc3ccc(-c4ccc(Cl)cc4)cc3)[C@H](O)[C@H](C)O2)Oc2ccc(cc2Cl)[C@H]1O", "system": "mouse", "conditions": "intravenous, 10 mg/kg", "Cmax": "85900 ng/mL"}
{"Compound": "O=S(=O)(NCc1ccncc1)c1ccc(C2CCCCC2)cc1", "system": "mouse (C57BL/6J, male), brain cerebral cortex", "conditions": "intraperitoneal, 0.3 mg/kg", "Cmax": "0.103 µM"}
{"Compound": "O=C(c1ccccc1)N1C(c2ccc(OCC3CCN(CCCF)C3)cc2)c2ccc(O)cc2CC12CC2 (centres unmarked)", "system": "C57BL/6J mouse, plasma", "conditions": "intraperitoneal, 25 mg/kg", "Cmax": "4540 ng/mL and 6200 ng/mL"}
{"note": "For quick reference, copied from above:"}
{"Compound": "C/C(N)=N/C(=N\\S(=O)(=O)c1ccc(C(F)(F)F)cc1)N1C[C@H](c2ccccc2)C(c2ccc(Cl)cc2)=N1", "system": "C57BL/6 mouse, male, plasma", "conditions": "oral, 10 mg/kg", "Cmax": "1300 ng/mL"}
{"Compound": "O=S(=O)(NCc1ccncc1)c1ccc(C2CCCCC2)cc1", "system": "mouse (C57BL/6J, male), brain cerebral cortex", "conditions": "intraperitoneal, 0.3 mg/kg", "Cmax": "0.103 µM"}
